Published values gathered from unrelated publications.
A part holds a random share of what one study measured.
Chain of UniProt O75676 (whole entry, looked up): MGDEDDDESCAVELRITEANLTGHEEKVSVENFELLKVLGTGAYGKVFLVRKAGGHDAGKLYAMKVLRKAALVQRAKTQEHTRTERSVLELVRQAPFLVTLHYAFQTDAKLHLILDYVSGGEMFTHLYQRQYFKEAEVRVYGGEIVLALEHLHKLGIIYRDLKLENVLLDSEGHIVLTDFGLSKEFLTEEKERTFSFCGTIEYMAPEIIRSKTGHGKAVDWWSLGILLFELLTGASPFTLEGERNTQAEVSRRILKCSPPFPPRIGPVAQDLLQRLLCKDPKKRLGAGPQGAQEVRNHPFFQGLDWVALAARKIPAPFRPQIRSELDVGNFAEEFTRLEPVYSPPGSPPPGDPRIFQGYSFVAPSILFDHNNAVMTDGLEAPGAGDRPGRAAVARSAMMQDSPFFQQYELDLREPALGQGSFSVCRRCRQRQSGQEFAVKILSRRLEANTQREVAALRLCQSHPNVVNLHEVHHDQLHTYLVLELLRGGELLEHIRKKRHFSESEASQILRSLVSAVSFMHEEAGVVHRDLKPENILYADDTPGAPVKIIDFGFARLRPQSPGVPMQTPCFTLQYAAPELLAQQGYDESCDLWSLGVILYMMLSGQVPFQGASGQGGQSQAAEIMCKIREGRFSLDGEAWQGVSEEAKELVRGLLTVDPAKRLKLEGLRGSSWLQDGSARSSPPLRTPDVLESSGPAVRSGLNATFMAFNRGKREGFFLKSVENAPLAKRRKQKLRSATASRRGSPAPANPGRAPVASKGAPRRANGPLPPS
Chain of UniProt Q6P3R8 (whole entry, looked up): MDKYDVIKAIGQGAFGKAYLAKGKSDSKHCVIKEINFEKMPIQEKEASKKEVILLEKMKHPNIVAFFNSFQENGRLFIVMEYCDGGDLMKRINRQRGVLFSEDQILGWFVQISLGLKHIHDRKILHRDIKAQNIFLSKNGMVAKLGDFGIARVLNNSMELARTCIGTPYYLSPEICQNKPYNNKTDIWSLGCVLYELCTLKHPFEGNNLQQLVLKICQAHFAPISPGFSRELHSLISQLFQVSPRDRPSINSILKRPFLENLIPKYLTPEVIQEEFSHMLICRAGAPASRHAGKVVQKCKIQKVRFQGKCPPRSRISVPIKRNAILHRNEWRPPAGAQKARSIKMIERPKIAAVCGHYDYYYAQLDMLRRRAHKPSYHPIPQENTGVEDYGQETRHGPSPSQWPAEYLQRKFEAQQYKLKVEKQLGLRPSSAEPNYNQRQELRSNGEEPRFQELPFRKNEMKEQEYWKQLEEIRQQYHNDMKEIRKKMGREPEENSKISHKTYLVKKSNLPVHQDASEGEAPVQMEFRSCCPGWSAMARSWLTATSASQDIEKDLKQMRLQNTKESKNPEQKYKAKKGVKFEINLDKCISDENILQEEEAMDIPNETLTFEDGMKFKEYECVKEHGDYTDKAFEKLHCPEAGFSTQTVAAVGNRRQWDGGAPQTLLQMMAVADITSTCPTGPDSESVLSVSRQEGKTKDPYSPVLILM
Chain of UniProt Q9UQB9 (whole entry, looked up): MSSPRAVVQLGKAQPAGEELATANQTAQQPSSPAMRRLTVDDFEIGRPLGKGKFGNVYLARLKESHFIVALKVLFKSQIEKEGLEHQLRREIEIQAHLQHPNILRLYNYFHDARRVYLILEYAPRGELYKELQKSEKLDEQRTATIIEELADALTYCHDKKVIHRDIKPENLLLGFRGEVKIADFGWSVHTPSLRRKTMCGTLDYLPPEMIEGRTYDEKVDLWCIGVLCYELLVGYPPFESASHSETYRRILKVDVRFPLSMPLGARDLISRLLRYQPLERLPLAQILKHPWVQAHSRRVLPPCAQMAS
Chain of UniProt Q13163 (whole entry, looked up): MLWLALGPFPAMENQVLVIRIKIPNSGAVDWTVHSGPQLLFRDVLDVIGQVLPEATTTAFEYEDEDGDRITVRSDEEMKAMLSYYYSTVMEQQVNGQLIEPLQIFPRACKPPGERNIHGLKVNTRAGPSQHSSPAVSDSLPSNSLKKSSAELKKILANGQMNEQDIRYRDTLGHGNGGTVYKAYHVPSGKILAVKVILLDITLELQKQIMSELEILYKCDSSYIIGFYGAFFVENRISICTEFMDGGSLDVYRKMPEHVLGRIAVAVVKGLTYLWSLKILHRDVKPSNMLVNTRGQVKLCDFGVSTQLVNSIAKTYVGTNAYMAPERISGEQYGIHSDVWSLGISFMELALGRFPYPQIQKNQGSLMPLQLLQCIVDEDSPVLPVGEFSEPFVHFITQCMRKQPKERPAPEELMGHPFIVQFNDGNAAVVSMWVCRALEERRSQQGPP
Chain of UniProt P33981 (whole entry, looked up): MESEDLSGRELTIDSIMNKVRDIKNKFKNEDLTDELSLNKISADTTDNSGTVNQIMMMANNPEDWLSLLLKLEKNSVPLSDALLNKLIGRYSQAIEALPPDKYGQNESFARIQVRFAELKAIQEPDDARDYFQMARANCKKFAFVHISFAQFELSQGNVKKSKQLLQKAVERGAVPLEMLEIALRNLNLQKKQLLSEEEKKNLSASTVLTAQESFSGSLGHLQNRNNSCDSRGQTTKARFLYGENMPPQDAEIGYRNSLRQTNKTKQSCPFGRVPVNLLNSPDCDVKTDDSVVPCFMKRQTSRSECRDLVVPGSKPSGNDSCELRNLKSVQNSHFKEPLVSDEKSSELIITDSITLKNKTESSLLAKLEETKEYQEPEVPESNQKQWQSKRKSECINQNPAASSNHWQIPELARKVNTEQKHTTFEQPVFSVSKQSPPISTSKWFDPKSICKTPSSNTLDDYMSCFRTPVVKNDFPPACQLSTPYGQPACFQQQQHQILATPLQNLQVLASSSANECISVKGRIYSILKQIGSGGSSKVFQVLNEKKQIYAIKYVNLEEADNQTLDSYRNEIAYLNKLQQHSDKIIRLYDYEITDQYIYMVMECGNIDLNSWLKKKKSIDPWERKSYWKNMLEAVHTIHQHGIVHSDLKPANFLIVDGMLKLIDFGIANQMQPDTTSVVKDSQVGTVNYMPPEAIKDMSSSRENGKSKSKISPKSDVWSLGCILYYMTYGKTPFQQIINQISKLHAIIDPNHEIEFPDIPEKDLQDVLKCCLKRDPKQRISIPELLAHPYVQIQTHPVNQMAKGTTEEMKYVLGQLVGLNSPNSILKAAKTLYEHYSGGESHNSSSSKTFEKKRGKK
Chain of UniProt Q86YV6 (whole entry, looked up): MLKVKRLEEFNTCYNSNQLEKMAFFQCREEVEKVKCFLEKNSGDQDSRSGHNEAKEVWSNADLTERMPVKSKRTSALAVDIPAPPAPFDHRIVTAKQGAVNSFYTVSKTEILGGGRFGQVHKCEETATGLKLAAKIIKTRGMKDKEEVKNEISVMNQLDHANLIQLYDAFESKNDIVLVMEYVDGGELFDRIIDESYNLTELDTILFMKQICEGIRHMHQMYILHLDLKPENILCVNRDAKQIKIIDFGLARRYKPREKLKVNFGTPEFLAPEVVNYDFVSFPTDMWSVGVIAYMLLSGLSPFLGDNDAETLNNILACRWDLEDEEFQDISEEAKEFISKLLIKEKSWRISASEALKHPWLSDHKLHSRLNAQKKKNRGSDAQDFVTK
Chain of UniProt Q9HC98 (whole entry, looked up): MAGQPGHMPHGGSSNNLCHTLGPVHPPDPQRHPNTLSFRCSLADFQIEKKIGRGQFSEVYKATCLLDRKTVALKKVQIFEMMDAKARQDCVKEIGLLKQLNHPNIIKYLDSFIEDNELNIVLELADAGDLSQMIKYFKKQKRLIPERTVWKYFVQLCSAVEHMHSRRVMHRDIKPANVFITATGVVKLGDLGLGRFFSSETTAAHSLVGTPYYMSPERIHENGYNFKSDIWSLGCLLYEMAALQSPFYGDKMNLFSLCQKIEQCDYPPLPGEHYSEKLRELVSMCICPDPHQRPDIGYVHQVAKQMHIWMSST

Block 1 — read-out: enzyme activity; action: inhibitor; concentration: 10 µM
Target: Calcium/calmodulin-dependent protein kinase type II subunit alpha (CAMK2A, Homo sapiens, UniProt Q9UQM7)
Chain of UniProt Q9UQM7 (whole entry, looked up): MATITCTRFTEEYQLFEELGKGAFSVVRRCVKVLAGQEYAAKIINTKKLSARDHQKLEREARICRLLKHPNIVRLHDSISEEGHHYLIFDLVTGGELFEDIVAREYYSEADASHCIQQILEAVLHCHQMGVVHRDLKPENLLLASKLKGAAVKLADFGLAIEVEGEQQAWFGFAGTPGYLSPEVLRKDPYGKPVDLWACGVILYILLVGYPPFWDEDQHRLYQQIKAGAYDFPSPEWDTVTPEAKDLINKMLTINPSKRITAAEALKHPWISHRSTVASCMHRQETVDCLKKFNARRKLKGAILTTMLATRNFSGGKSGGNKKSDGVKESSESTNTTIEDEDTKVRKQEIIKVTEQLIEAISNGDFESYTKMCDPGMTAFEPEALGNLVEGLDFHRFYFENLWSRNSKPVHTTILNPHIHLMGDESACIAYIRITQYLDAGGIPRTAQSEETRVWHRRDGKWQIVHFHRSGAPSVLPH
SMILES	inhibition [%]
CC(C)n1nccc1-c1ncccc1COc1cccc(O)c1C=O	-4
C[C@H]1O[C@@H](O[C@@H]2CC[C@@]3(C)[C@@H](CC[C@]4(C)[C@@H]3C=C[C@]35OC[C@@]6(CCC(C)(C)C[C@H]63)[C@@H](O)C[C@]54C)[C@@]2(C)CO)[C@H](O)[C@@H](O)[C@H]1O (stereo in doubt)	6
CCc1ccc(O)cc1	-6
COc1ccc(-c2coc3cc(O)ccc3c2=O)cc1	-9
COc1cc(CN)ccc1O	10
O=C(O)CCCC(=O)C(=O)O	-13
NC(=O)OCC(COC(N)=O)c1ccccc1	11
COc1cc2oc(-c3ccc(O)cc3)cc(=O)c2c(O)c1OC	1

Block 2 — read-out: enzyme activity; action: inhibitor; concentration: 0.5 µM; reference: control
Target: Protein kinase C delta type (PRKCD, Homo sapiens, UniProt Q05655)
Chain of UniProt Q05655 (whole entry, looked up): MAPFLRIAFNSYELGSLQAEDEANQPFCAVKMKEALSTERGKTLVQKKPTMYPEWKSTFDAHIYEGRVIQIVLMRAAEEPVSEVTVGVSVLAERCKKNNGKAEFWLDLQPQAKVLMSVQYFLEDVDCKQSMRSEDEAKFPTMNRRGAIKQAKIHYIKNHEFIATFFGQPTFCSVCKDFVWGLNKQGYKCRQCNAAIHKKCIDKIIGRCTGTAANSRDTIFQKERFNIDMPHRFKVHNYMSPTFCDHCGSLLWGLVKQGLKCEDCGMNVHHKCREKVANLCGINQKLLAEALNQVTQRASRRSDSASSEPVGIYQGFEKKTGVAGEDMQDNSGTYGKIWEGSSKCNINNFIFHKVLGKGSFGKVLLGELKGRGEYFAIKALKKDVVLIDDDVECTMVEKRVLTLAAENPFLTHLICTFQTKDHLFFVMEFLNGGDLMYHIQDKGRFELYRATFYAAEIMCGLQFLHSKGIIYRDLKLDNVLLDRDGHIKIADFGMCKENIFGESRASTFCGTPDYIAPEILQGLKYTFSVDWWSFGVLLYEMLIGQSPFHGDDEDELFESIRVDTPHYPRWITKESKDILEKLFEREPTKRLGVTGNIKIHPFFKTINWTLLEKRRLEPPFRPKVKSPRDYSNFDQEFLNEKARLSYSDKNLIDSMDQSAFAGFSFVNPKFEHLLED
SMILES	remaining activity [%]
Nc1cccc(-c2cc3c(Oc4cccc(O)c4)ncnc3[nH]2)c1	95.7
Cn1nc2c3c(cccc31)C(=O)c1ccccc1-2	92.3
O=C1C(Cl)=C(N2C(=O)CCC2=O)C(=O)c2ccccc21	97.8
COc1cc2ncnc(Nc3cccc(Cl)c3)c2cc1OC	86.4
COc1cc2c(cc1OC)-c1[nH]nc(Nc3cccc(F)c3)c1C2	111
Cc1cc2ncc(-c3ccccc3)nc2cc1C	92.3
CCN(CC)CCNC(=O)c1c(C)[nH]c(/C=C2\C(=O)Nc3ccc(F)cc32)c1C	95.1
c1ccc(-c2[nH]ncc2-c2ccnc3ccccc23)nc1	96.6
CN(C)C[C@H]1CCn2c(c(C3=C(c4cn(C)c5ccccc45)C(=O)NC3=O)c3ccccc32)C1	8.11
CCN(CC)C(=O)c1ccc(Nc2nc(OCC3CCCCC3)c3[nH]cnc3n2)cc1	76.7
Cc1nc2cc3nc(-c4cccs4)cnc3cc2n1C	78.6
Ic1cccc(CSc2nnc(-c3ccncc3)o2)c1	83.7
O=C1c2ccccc2-c2n[nH]c3cccc1c23	94.9
CCN(CC)CCNC(=O)c1c(C)[nH]c(/C=C2\C(=O)Nc3ccc(Cl)cc32)c1C	90.4
O=C(NC(NC(=S)Nc1ccc(F)c([N+](=O)[O-])c1)C(Cl)(Cl)Cl)C(c1ccccc1)c1ccccc1 (stereo not shown)	91.2
N#C/C(=C\c1ccc(O)c(O)c1)C(=O)NCc1ccccc1	91.1
N#Cc1c(NC(=O)c2cccc3ccccc23)sc2c1CCCC2	94.1
COc1cc2ncnc(Nc3ccc(O)c(Br)c3)c2cc1OC	97.3
O=c1cc(-c2cccc3c2Sc2ccccc2S3)oc(N2CCOCC2)c1	91.9
Cc1cn(-c2cc(NC(=O)c3ccc(C)c(Nc4nccc(-c5cccnc5)n4)c3)cc(C(F)(F)F)c2)cn1	100
O=C(Nc1cccc(Nc2nccc(Nc3cccc(C(F)(F)F)c3)n2)c1)C1CC1	87.9
c1ccc(-c2cnc(Nc3ccc(OCCN4CCCC4)cc3)s2)cc1	91.3
C[C@@H]1CCN(C(=O)CC#N)C[C@@H]1N(C)c1ncnc2[nH]ccc12	75.3

Block 3 — read-out: cell-free assay; method: competition with immobilised ligand; concentration: 0.1 µM
Compound: CS(=O)(=O)N1CCCC(NC(=O)[C@H](CCC2CCCCC2)NC(=O)c2ccc(CNc3ncnc4c3nnn4-c3ccccc3)cc2)C1 (stereo partly shown)
target	remaining binding
MUSK (Homo sapiens, UniProt O15146)	100%
ANKK1 (Homo sapiens, UniProt Q8NFD2)	80%
FLT3 (Homo sapiens, UniProt P36888, K663Q)	94%
Ribosomal protein S6 kinase alpha-4, C-terminal kinase domain (RPS6KA4, Homo sapiens, UniProt O75676)	91%
ALK (Homo sapiens, UniProt Q9UM73, L1196M)	100%
PKN2 (Homo sapiens, UniProt Q16513)	95%
CDK15 (Homo sapiens, UniProt Q96Q40)	74%
Tyrosine-protein kinase ABL1, phosphorylated (ABL1, Homo sapiens, UniProt P00519, H396P)	100%
NEK5 (Homo sapiens, UniProt Q6P3R8)	95%

Block 4 — action: inhibitor; concentration: 1 µM
Structure (SMILES): C=CC(=O)N1CCC[C@@H](n2nc(-c3ccc(Oc4ccccc4)cc3)c3c(N)ncnc32)C1
target	test	inhibition [%]
MYLK4 (Homo sapiens, UniProt Q86YV6)	enzyme activity	1
MYLK (Homo sapiens, UniProt Q15746)	enzyme activity	35
PKMYT1 (Homo sapiens, UniProt Q99640)	enzyme activity	0
ACVRL1 (Homo sapiens, UniProt P37023)	enzyme activity	1
TRPM6 (Homo sapiens, UniProt Q9BX84)		15
TEK (Homo sapiens, UniProt Q02763)		49
PIK3CA (Homo sapiens, UniProt P42336, E545A)	enzyme activity	0
TNIK (Homo sapiens, UniProt Q9UKE5)	enzyme activity	5
Aurora kinase C (AURKC, Homo sapiens, UniProt Q9UQB9)	enzyme activity	17
TTK (Homo sapiens, UniProt P33981)		27
MAP2K5 (Homo sapiens, UniProt Q13163)		100
NEK6 (Homo sapiens, UniProt Q9HC98)	enzyme activity	13
